Measured values gathered from unrelated publications.
Every numbered part comes from another study and shows a few of its results, in no order.
Chain of UniProt Q13523 (whole entry, looked up): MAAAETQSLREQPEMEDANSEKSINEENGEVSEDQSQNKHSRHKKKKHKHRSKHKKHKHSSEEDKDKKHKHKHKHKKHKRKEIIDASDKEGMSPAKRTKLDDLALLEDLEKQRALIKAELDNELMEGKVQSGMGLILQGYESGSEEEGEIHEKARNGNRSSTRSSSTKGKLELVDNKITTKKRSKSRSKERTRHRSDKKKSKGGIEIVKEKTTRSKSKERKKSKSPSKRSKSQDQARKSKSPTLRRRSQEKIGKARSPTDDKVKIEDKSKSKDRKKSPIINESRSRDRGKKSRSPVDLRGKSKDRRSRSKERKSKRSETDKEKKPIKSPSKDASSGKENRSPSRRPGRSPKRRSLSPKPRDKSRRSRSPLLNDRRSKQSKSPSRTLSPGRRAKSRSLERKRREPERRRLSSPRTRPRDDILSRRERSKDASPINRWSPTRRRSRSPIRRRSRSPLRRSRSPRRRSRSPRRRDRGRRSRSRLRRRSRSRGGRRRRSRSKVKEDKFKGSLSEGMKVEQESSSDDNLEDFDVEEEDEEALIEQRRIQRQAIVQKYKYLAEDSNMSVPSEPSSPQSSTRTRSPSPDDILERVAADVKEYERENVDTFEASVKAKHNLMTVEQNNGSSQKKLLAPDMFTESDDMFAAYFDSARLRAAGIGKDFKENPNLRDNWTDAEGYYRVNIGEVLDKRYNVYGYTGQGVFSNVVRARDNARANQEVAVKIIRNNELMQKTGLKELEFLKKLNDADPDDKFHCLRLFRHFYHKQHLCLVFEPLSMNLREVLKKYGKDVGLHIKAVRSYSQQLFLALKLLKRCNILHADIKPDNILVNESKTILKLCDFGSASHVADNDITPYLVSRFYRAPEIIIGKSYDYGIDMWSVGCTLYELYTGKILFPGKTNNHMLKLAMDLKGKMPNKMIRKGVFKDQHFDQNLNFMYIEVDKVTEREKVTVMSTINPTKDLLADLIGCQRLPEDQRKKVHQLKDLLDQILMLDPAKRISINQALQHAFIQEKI
Chain of UniProt P54764 (whole entry, looked up): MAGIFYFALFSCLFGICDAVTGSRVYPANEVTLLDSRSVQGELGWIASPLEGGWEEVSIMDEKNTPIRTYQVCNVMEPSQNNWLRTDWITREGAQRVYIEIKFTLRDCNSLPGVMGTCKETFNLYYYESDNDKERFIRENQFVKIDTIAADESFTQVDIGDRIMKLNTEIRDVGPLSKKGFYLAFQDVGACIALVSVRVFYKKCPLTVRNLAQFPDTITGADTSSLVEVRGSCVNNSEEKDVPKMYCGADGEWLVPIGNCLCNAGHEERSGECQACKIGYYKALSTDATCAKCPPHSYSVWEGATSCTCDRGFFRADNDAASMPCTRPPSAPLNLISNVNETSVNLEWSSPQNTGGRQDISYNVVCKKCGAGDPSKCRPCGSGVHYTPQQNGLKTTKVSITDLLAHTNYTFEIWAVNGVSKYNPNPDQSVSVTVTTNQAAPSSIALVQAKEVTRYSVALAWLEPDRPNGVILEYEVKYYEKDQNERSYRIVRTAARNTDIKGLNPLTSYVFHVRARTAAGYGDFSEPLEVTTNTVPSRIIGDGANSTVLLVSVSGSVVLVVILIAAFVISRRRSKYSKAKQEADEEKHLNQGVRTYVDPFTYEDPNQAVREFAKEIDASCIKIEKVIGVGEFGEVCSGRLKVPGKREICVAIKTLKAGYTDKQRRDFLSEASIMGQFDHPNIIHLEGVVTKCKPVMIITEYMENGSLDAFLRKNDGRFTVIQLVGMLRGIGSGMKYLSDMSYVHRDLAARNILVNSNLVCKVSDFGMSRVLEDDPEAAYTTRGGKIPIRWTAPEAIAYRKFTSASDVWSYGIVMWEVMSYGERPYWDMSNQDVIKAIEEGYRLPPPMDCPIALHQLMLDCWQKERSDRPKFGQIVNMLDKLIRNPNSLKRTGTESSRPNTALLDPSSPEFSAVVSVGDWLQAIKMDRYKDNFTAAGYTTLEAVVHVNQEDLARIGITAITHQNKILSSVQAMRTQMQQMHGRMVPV
Chain of UniProt Q9UM73 (whole entry, unmodified, looked up): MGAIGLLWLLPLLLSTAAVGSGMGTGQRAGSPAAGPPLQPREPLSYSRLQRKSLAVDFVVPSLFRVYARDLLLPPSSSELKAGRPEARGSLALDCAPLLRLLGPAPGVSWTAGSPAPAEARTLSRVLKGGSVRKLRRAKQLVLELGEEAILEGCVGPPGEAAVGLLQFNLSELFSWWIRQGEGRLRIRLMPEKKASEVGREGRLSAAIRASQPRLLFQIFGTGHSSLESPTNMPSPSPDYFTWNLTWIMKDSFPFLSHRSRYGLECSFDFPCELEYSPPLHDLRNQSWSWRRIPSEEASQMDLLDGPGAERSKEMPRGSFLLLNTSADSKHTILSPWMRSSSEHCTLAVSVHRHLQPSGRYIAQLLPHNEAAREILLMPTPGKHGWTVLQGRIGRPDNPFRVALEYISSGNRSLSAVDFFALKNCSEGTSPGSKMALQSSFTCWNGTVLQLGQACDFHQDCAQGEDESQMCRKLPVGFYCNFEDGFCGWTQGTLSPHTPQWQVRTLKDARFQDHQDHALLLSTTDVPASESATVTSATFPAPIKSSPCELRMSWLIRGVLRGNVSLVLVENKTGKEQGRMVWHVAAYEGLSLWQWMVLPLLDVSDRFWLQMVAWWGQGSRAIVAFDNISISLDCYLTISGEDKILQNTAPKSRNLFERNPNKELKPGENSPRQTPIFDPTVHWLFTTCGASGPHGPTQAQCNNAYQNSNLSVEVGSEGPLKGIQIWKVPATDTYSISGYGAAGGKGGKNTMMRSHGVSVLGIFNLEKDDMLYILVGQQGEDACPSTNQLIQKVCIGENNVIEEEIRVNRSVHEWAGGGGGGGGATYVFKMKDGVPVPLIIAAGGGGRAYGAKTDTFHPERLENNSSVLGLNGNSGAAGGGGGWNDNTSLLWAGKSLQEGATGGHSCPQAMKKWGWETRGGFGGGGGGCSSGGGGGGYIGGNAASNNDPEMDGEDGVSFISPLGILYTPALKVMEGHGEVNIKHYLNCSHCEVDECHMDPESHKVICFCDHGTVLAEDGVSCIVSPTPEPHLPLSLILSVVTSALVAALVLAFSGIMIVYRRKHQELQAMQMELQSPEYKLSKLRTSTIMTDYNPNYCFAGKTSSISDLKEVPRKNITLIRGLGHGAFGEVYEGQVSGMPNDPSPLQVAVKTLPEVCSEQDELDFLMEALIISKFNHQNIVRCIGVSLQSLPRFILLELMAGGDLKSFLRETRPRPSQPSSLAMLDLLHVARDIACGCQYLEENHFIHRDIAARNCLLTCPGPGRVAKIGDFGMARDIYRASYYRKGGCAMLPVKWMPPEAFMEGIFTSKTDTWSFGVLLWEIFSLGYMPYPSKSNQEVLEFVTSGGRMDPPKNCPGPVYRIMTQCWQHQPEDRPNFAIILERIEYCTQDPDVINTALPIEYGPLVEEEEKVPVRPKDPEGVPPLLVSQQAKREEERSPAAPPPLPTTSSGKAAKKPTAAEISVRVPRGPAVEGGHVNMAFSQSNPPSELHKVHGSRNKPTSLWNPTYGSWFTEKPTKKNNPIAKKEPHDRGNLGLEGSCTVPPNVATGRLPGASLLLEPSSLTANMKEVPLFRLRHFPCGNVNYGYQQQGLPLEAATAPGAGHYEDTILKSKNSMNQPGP
Chain of UniProt P11802 (whole entry, looked up): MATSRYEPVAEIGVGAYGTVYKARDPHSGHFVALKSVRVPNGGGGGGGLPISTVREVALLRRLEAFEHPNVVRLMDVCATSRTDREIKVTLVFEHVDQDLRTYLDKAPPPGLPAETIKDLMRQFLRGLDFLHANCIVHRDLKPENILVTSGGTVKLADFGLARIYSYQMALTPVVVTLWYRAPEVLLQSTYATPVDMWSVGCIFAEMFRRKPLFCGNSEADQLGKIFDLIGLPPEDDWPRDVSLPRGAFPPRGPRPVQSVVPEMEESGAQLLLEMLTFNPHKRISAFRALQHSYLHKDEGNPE
Chain of UniProt Q96D53 (whole entry, looked up): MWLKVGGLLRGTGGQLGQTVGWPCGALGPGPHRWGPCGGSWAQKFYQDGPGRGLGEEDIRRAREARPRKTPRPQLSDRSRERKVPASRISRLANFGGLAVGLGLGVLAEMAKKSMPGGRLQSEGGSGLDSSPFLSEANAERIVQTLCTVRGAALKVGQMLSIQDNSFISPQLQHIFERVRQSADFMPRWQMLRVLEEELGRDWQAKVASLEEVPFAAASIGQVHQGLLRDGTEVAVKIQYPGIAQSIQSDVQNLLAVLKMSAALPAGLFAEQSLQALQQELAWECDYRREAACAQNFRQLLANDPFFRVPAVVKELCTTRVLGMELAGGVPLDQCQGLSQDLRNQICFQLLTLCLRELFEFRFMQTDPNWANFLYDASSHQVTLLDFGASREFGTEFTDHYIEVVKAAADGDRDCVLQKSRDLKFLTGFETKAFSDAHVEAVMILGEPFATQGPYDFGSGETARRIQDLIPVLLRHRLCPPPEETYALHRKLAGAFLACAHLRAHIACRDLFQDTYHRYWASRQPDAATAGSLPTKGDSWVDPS

Study 1
SMILES: O=C(N[C@H]1CCCCC/C=C\C2C[C@@]2(C(=O)O)NC(=O)[C@@H]2C[C@@H](Oc3ccncc3)CN2C1=O)OC1CCCC1 (some centres unmarked)
Technique: competition with immobilised ligand
Concentration: 1 µM
Endpoint: remaining binding
target = Fibroblast growth factor receptor 3 (FGFR3, Homo sapiens, UniProt P22607); assay = cell-free assay; value = 88%
target = Cyclin-dependent kinase 4, with cyclin D1 (CDK4, Homo sapiens, UniProt P11802); assay = binding; value = 100%
target = Tyrosine-protein kinase Lck (LCK, Homo sapiens, UniProt P06239); assay = binding; value = 100%
target = Cyclin-dependent kinase-like 5 (CDKL5, Homo sapiens, UniProt O76039); assay = binding; value = 83%
target = ALK tyrosine kinase receptor (ALK, Homo sapiens, UniProt Q9UM73, L1196M); assay = cell-free assay; value = 100%
target = Atypical kinase COQ8B, mitochondrial (COQ8B, Homo sapiens, UniProt Q96D53); assay = binding; value = 100%
target = Ephrin type-A receptor 4 (EPHA4, Homo sapiens, UniProt P54764); assay = cell-free assay; value = 93%
target = Mitogen-activated protein kinase kinase kinase 5 (MAP3K5, Homo sapiens, UniProt Q99683); assay = binding; value = 91%
target = Protein kinase C theta type (PRKCQ, Homo sapiens, UniProt Q04759); assay = cell-free assay; value = 100%
target = Non-receptor tyrosine-protein kinase TNK1 (TNK1, Homo sapiens, UniProt Q13470); assay = binding; value = 100%
target = Serine/threonine-protein kinase PRP4 homolog (PRPF4B, Homo sapiens, UniProt Q13523); assay = binding; value = 92%
target = Tyrosine-protein kinase ABL1, phosphorylated (ABL1, Homo sapiens, UniProt P00519, F317L); assay = binding; value = 100%
target = Cyclin-dependent kinase 3 (CDK3, Homo sapiens, UniProt Q00526); assay = binding; value = 100%

Study 2
Target: Hepatocyte nuclear factor 3-alpha (Foxa1, Mus musculus, UniProt P35582, residues 1-468, full length assumed)
Chain of UniProt P35582 (whole entry, looked up): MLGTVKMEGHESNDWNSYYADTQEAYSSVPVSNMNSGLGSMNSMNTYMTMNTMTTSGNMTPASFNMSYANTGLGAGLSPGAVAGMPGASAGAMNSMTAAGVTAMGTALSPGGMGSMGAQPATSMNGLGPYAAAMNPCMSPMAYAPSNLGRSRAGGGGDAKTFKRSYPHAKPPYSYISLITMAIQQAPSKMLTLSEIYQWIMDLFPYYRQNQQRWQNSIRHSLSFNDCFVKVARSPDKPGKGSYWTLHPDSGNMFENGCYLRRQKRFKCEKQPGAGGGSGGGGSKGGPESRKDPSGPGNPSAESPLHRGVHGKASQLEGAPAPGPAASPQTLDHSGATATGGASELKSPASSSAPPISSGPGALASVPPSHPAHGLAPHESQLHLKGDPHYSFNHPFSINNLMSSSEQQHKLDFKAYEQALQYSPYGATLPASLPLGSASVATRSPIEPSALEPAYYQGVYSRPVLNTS
Technique: EMSA with sequencing
Molecule type: double-stranded DNA, one strand shown
Matrix: in vitro
Concentration: 10 and 20 nM
Setting: whole designed probe, mean of two concentrations, ends assumed
Relative to: negative control set to 0
Reading: higher = stronger binding
Endpoint: normalised bound fraction
Sequence = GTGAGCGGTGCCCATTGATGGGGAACATCTTTGCTGGGGTTGGGCCATAGCTTGATGGGTATTTGTTGAATGACTAATTATTGACTTATAGGCTAACAGCCTCCTTTGAAGTAGGCTGAGCAAACAAACCATTAAGTGGAACATGGTGTCTAGGTTACACAGCTCACTCATCTGCTAATCACTGGGGCACACTGCTGGTTATTATTACCTGAGACCCTGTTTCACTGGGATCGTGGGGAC; value = 0.509 ratio
Sequence = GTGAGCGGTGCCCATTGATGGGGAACTGGCAAAGTTTTTGCCAGAATTCAGAATTCAATGTAACATATGCTTTGCAGTTTTTCTGTTACGCTGTGATCAATGTATTTATGTGTATATGTGTAAACACATGTAATGTGTGTGTGCGCATATGTGTTGGAGTAATAATATTGTGCCATTCCTGGTATATGGAAAATGGCCTCCAATTTCCCCCCAAATTCTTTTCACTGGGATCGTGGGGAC; value = 0.211 ratio
Sequence = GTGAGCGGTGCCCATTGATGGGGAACAGATATTAAACGCCCAGAGAAAGGCTATAATAAAAAATGCATTTAACTTTTTCAAATCTCTTGTTCCCACATCTACTTGAATGCAGAAACTCTAGATTGCCTTAATATTTACTTGTATTTTGCAGAACAAATTTTTGCAGAATTCATTTTGGAAAATGCAGCCACTGACAACTGGGATAATTTTCTAAAGGAATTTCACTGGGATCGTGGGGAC; value = 0.0425 ratio
Sequence = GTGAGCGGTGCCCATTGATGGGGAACTAAACAAAGCTGGTCGCCCAATGAAGAGGCGGCGGGGGCGGGCGCTGGGCCGGGGAGGCCGGGGGCGGAGCCGGGGGCGGGGCGACCGGGCGGAGATTACAGACCGGCACATGGCGCTTCCGGTTGACGTTGCTGACAGCTAGTGAGGCTTTAGCCCGCTTCGAGCGCCCGGGGGCGGTAAGGCGCGATCATATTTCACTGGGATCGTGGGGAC; value = 0.474 ratio
Sequence = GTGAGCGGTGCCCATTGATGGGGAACCAGCCTGCAGTGCGCTCAGTTAAACAATTCCAAATCAAGGAATTTTGTCTGATACAAGGAATTTGGGGTGTGTTTTCCTAACATGCACCCTGGGTAAATAGACTGGGGGGGGGGGCCATTTCCTGACCCAGCTGAAGCCAATATGCATTGCGGCCACAAGGTGGCGCGTCTGGGCCTGGCAAACCCCTGTGCTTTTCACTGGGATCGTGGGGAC; value = 0.188 ratio
Sequence = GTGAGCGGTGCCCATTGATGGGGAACATGTGCTAAAAATACAAGACTTGCTTACGCAGAGAGCCGGGAGCTATGTTCCAGTGAGGGTGGAAACAAAAGCCTCAGTATAAGACTGTCAGGTGTTTACACTTGCTCATGTGGCAACACAAGGGTGTGGTGAGGTTGCTGGACTCCACATGCTGAGGCTCAAAGTAGAAATCACTGATCTTATGTCACATATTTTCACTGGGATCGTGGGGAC; value = 0.167 ratio
Sequence = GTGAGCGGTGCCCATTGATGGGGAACCACTCATAGTCTTGCTATCCTTCATATACAGAGATGACCGTCGCAAGCCTAAAATCAACAGGGGGAGGCATAGAGCTGTCCTTCTGGCTCTAATGTTTGCTTTACCATCATCCAGGCGCATTCTTAGTCCAGCATGTGAGAGCCAGTGTGAAGTGAGCAGAATATGGCATAAGTATGGAGTCATACATCCTTATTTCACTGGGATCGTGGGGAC; value = 0.338 ratio
Sequence = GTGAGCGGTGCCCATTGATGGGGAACTTCTTCACTCTTCTCAGGCTGCTGTAAAACAGAATTGATAAAACCACATGTTTCAACTATTATTACAGTTTACATTGTAAGGAAATTTGCCTATGTAATCTAAAAAATGGAGAAAAAAGAGACTCATGTAACTTCTTTTGTAAATAGATGTATTGGGTTAGTAGCAGAACAACTGGGATTGTGAAAACAAAAATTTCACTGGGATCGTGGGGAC; value = 0.201 ratio

Mixed results
PNN: PNN (Homo sapiens, UniProt Q9H307)
Substance = EEF1G (Homo sapiens, UniProt P26641); target or system = DNAH17 (Homo sapiens, UniProt Q9UFH2); assay = cross-linking MS; test system = cell fractions; setting = together with: DSSO; endpoint = cross-linked residues; value = K208 to K1558
Substance = O=C(c1nc2ncccn2n1)N1CCCn2cc(-c3ccccc3)nc21; test system = mouse, microsomes or S9; setting = 2 µM, 0.5 h; endpoint = remaining compound; value = 48.3%
Substance = EIF4A3 (Homo sapiens, UniProt P38919); target or system = PNN; assay = cross-linking MS; setting = hits only; endpoint = interaction screen; value = cross-linked
Substance = RBM39 (Homo sapiens, UniProt Q14498); target or system = SREK1 (Homo sapiens, UniProt Q8WXA9); assay = cross-linking MS; test system = cell fractions; setting = together with: DSSO; endpoint = cross-linked residues; value = K244 to K94
Substance = MAGOH (Homo sapiens, UniProt P61326); target or system = PNN; assay = cross-linking MS; setting = hits only; endpoint = interaction screen; value = cross-linked

A few entries again (study 1):
target = Tyrosine-protein kinase Lck (LCK, Homo sapiens, UniProt P06239); assay = binding; value = 100%
target = Cyclin-dependent kinase-like 5 (CDKL5, Homo sapiens, UniProt O76039); assay = binding; value = 83%
target = ALK tyrosine kinase receptor (ALK, Homo sapiens, UniProt Q9UM73, L1196M); assay = cell-free assay; value = 100%
